Results collected from several papers.
A part holds a random share of what one study measured. Values joined by “and” are separate records of one study, mostly repeats; a detail may differ.
Sequence of UniProt Q8TD19 (whole entry, looked up): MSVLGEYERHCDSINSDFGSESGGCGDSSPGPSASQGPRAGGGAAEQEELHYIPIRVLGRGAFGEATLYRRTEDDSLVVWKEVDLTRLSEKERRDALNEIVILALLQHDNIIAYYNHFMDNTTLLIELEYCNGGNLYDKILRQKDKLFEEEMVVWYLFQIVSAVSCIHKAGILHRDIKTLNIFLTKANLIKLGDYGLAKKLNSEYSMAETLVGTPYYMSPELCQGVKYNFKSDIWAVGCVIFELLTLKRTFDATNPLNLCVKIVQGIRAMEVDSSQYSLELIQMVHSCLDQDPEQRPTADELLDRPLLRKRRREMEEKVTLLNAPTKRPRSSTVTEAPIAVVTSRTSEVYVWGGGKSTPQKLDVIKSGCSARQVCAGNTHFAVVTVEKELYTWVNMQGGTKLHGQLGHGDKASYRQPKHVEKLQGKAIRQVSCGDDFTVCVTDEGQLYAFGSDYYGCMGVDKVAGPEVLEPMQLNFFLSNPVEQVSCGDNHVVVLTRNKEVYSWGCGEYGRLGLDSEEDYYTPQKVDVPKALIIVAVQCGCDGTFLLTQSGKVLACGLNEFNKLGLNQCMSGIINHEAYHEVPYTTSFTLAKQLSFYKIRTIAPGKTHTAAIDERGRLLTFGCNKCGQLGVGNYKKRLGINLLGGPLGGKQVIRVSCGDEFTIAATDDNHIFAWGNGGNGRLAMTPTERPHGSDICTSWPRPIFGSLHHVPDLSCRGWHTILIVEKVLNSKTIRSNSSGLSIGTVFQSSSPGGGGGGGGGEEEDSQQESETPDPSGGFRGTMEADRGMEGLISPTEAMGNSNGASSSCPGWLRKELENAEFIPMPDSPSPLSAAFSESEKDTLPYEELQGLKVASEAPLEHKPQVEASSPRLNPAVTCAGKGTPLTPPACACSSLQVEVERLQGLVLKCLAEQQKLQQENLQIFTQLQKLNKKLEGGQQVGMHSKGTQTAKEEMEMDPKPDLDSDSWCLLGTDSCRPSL
Sequence of UniProt O75116 (whole entry, looked up): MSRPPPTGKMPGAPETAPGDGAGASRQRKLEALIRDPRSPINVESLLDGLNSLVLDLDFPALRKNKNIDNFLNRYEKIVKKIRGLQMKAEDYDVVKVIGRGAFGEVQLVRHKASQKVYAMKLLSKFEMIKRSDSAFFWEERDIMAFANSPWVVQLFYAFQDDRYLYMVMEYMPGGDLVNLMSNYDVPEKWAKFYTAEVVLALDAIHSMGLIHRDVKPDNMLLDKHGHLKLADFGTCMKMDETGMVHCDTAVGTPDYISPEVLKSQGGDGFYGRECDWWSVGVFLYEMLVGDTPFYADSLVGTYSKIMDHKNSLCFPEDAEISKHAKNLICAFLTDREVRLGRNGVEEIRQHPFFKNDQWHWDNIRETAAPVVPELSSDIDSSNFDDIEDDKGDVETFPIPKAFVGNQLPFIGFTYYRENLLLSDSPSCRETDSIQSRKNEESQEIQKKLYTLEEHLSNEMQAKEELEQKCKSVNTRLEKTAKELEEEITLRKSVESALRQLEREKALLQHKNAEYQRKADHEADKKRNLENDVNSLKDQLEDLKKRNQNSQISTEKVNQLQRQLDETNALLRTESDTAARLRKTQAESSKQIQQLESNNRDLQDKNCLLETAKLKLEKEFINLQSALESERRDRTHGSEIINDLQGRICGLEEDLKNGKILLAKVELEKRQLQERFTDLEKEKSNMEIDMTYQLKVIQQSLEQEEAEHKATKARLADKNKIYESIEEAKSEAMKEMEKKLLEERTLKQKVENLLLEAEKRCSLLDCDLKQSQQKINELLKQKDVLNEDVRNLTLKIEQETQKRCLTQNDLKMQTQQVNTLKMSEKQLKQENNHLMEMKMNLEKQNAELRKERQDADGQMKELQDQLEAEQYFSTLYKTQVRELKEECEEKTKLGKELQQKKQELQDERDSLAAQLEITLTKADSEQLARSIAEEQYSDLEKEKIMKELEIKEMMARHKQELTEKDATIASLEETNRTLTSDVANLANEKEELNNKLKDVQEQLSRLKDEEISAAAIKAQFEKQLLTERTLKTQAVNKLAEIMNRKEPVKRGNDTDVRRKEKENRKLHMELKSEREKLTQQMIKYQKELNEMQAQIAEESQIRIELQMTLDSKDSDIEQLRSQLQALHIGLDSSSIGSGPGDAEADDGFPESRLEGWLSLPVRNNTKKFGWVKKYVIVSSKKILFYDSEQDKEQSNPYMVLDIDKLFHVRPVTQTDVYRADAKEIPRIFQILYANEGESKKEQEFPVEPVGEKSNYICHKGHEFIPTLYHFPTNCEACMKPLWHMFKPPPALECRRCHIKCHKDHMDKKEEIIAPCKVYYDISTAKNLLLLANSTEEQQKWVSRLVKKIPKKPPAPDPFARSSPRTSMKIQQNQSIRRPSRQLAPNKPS
Sequence of UniProt Q96NX5 (whole entry, looked up): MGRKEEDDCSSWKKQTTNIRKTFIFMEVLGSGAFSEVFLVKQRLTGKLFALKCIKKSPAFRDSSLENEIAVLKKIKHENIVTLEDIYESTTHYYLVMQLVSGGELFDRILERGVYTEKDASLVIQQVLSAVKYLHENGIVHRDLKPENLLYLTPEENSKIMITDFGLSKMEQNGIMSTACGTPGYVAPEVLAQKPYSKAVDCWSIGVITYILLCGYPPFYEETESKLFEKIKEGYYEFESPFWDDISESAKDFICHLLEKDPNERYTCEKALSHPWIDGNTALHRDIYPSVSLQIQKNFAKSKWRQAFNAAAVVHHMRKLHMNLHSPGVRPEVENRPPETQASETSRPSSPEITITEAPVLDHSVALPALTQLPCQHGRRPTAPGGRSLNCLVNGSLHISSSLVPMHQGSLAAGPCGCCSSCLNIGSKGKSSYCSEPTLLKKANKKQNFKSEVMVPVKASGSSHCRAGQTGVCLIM
Sequence of UniProt Q9H2G2 (whole entry, looked up): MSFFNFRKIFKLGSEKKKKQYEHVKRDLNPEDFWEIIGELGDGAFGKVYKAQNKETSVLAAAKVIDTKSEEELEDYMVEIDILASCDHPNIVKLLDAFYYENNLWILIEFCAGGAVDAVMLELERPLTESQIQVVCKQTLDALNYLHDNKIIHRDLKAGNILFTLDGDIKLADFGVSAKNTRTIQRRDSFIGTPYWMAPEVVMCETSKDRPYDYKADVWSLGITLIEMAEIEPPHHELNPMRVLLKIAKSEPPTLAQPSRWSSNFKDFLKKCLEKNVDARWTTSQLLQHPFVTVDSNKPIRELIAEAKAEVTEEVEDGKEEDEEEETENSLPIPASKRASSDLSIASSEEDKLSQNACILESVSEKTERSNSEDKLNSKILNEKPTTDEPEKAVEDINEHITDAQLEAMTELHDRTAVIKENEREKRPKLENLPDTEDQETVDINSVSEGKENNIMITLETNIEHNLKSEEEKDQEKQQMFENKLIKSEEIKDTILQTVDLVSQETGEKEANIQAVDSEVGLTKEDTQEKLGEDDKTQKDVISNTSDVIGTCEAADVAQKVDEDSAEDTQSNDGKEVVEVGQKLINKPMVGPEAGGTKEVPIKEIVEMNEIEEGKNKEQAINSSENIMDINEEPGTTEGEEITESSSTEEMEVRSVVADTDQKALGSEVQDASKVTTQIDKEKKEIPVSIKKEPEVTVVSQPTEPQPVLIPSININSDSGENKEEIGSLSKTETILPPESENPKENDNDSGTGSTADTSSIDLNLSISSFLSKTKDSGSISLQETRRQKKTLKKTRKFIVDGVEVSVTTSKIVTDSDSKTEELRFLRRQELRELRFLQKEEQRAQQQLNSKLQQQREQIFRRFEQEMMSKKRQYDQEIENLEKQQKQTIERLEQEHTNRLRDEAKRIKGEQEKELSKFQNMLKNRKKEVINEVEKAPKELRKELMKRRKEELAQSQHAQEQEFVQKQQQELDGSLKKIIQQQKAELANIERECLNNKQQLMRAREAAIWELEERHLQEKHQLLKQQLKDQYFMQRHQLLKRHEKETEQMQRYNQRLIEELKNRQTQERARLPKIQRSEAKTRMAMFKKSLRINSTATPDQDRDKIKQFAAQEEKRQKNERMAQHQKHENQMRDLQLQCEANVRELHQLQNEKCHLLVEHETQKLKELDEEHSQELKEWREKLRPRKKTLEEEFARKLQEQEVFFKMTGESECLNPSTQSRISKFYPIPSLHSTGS
Sequence of UniProt P53779 (whole entry, looked up): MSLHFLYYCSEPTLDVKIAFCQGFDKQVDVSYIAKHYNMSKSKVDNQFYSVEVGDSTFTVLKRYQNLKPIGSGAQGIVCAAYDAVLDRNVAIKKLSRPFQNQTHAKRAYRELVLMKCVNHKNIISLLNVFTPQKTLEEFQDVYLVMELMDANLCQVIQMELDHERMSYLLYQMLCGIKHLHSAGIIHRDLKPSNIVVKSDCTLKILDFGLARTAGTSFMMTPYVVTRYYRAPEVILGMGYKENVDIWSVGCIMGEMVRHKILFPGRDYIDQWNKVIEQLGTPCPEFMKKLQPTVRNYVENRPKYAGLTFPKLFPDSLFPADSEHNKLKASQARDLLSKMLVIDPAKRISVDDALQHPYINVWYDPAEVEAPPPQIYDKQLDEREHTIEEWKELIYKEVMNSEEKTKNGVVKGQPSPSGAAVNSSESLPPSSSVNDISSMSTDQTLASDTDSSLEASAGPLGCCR
Sequence of UniProt Q8IU85 (whole entry, looked up): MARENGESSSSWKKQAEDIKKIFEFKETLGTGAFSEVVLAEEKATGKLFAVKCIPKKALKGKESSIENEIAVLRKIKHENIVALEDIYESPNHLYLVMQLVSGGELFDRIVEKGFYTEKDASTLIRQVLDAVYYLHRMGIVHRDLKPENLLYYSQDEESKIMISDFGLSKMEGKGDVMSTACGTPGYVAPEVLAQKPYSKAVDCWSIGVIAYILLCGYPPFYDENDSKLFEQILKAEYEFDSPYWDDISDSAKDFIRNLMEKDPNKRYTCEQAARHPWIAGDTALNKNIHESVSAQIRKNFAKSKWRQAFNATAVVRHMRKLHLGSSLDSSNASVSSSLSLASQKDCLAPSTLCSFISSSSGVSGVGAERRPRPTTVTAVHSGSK

Sample 1 — cell line: A-375; tested at: 100 µM; time: 36 h; measurement: viability
Compound = COC[C@@H](NC(C)=O)C(=O)NCc1ccccc1; result = 111%
Compound = CC(C)(C)NCC(O)c1ccccc1Cl (stereo not drawn); result = 87.3%
Compound = CCC1(c2ccc(N)cc2)CCC(=O)NC1=O (stereo not drawn); result = 105%
Compound = NC(=O)CN1CC(O)CC1=O (stereo not drawn); result = 106%
Compound = COc1ccc(C(=O)N2CCCC2=O)cc1; result = 117%
Compound = CC(C)(C)c1cc(C(C)(C)C)c(NC(=O)c2c[nH]c3ccccc3c2=O)cc1O; result = 2.55%
Compound = O=c1[nH]c2ccccc2n1C1CCN(CCCC(c2ccc(F)cc2)c2ccc(F)cc2)CC1; result = 1.45%
Compound = CN1CCc2cc3c(cc2[C@H]1[C@@H]1OC(=O)c2c1ccc1c2OCO1)OCO3; result = 91.3%
Compound = CC(C)C(Br)C(=O)NC(N)=O (stereo not drawn); result = 98%
Compound = C[C@H]1CC(=O)C[C@@H]2CC[C@H]3[C@@H]4CC[C@H](O)[C@@]4(C)CC[C@@H]3[C@]21C; result = 14.6%

Sample 2 — organism: Cryptosporidium parvum; method: time-kill; cell line: HCT-8; strain: nanoluciferase-expressing; baseline: DMSO control; measurement: luminescence remaining
Compound: CNC(=O)c1ccc(-c2cnn3ccc(C(=O)N(C)c4ccc(Cl)c(C(=O)OC)c4)cc23)cc1
setting = 6.667 µM, 24 h; result = 46.4% and 44.2%
setting = 0.00914 µM, 48 h; result = 15.3% and 15.1%
setting = 0.00102 µM, 0 h; result = 113% and 97.9% and 85.3% and 106% and 93.1% and 94.5% and 102%
setting = 0.00102 µM, 24 h; result = 68.8% and 109%
setting = 0.00914 µM, 8 h; result = 68.9% and 79.2%
setting = 0.00305 µM, 8 h; result = 80.9% and 77.2%
setting = 0.02743 µM, 48 h; result = 9.39% and 11.2%
setting = 20 µM, 4 h; result = 85.3% and 105%
setting = 6.667 µM, 8 h; result = 96.2% and 113%
setting = 0.02743 µM, 24 h; result = 30.6% and 32.8%
setting = 6.667 µM, 0 h; result = 101% and 92% and 117% and 105% and 103% and 102% and 94.1% and 85.9%
setting = 0.00914 µM, 4 h; result = 111% and 113%

Sample 3 — SMILES: COc1ccc2c(c1)/C(=C/c1cnc[nH]1)C(=O)N2; observed: enzyme activity; mode: inhibitor; tested at: 0.5 µM; baseline: control; measurement: remaining activity
target = NEK9 (Homo sapiens, UniProt Q8TD19); result = 83.2%
target = ROCK2 (Homo sapiens, UniProt O75116); result = 87.4%
target = DYRK4 (Homo sapiens, UniProt Q9NR20); result = 98.5%
target = CAMK1G (Homo sapiens, UniProt Q96NX5); result = 95.6%
target = MAPK10 (Homo sapiens, UniProt P53779); result = 105%
target = Aurora kinase A (AURKA, Homo sapiens, UniProt O14965); result = 69%
target = CAMK1D (Homo sapiens, UniProt Q8IU85); result = 98.3%
target = SLK (Homo sapiens, UniProt Q9H2G2); result = 81.9%
target = PRKD1 (Homo sapiens, UniProt Q15139); result = 47.9%

Sample 4 — cell line: mouse MPNST tumor cells; method: high-content nuclear imaging; item: cell number; tested at: 10 µM; time: 12 h; notes: mean of 2 replicates; baseline: plate mean; reading: higher = more cells; measurement: nuclei count
Compound = NC(=O)CN1CCCC1=O; result = 0.398 z-score
Compound = COc1ccc(CNC(=O)C=Cc2ccc3[nH]cc(CCN(C)C)c3c2)cc1; result = 3.36 z-score
Compound = CN1CC2CN(c3ccc(-c4ccccc4)nn3)CC2C1 (stereo not drawn); result = 2.7 z-score
Compound = O=C(O)CNC(=O)c1c(O)c2ccccc2n(Cc2ccccc2)c1=O; result = 2.47 z-score
Compound = O=C(O)CCCc1ccc(N(CCCl)CCCl)cc1; result = 2.22 z-score
